# Measurements of several laboratories.
# Each numbered part is a random draw from the data of one study; scales do not carry over between parts.
# UniProt Q13163, sequence (whole entry, looked up): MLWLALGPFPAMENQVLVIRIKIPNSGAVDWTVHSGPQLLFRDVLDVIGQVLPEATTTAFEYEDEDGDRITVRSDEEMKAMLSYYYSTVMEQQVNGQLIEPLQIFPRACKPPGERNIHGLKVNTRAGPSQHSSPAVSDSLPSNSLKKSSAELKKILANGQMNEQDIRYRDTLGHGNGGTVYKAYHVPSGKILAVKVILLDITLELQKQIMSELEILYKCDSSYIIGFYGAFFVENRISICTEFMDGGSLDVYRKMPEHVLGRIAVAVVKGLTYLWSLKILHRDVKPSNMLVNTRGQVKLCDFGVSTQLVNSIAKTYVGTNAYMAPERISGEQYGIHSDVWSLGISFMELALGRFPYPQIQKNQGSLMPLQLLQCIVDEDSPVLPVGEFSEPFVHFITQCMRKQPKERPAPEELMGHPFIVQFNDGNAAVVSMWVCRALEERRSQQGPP
# UniProt P06239, sequence (whole entry, looked up): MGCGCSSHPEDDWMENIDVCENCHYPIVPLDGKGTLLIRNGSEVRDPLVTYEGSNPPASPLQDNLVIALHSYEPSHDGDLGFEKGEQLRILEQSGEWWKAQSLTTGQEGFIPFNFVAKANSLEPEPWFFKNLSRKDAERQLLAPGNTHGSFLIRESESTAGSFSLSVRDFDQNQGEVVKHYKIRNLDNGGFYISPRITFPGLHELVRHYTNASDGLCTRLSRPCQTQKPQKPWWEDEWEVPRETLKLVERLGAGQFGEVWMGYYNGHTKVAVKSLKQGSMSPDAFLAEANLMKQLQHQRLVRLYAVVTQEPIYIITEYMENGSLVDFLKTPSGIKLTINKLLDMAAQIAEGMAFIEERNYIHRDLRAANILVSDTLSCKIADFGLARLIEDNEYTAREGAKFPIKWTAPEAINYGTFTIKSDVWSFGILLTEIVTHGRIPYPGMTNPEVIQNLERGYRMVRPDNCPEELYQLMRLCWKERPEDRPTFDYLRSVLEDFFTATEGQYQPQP
# UniProt Q96PY6, sequence (whole entry, looked up): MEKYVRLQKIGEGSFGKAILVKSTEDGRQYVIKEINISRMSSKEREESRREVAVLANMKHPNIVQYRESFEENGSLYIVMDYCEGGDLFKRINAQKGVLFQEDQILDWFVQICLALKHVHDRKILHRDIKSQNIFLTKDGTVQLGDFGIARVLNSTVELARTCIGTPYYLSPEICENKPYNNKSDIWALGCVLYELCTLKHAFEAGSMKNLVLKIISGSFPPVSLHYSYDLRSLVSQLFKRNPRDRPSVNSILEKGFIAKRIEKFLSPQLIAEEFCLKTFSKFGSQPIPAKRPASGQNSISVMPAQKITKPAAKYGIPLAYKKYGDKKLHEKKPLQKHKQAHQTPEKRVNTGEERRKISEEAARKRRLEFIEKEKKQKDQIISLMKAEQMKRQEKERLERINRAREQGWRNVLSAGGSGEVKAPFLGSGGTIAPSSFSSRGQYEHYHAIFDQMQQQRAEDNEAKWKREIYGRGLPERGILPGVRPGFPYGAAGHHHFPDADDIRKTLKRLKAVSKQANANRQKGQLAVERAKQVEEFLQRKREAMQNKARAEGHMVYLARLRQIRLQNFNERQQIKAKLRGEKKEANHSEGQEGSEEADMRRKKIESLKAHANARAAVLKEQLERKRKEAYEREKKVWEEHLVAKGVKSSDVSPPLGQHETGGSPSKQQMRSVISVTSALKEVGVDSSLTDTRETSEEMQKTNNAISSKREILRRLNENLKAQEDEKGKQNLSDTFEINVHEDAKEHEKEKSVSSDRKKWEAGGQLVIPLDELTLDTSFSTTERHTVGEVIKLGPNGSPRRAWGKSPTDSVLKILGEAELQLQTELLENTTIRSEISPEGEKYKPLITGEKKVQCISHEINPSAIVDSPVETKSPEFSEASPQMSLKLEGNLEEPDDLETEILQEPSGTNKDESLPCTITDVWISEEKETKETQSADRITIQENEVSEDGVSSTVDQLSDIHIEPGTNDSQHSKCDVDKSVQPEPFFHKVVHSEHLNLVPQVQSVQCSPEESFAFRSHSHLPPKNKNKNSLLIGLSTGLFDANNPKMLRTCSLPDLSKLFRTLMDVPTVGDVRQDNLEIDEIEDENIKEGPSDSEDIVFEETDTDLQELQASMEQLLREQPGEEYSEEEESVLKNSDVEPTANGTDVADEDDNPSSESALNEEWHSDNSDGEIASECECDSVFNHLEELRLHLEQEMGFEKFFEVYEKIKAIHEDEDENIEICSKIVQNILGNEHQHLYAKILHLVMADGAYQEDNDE
# UniProt P35590, sequence (whole entry, looked up): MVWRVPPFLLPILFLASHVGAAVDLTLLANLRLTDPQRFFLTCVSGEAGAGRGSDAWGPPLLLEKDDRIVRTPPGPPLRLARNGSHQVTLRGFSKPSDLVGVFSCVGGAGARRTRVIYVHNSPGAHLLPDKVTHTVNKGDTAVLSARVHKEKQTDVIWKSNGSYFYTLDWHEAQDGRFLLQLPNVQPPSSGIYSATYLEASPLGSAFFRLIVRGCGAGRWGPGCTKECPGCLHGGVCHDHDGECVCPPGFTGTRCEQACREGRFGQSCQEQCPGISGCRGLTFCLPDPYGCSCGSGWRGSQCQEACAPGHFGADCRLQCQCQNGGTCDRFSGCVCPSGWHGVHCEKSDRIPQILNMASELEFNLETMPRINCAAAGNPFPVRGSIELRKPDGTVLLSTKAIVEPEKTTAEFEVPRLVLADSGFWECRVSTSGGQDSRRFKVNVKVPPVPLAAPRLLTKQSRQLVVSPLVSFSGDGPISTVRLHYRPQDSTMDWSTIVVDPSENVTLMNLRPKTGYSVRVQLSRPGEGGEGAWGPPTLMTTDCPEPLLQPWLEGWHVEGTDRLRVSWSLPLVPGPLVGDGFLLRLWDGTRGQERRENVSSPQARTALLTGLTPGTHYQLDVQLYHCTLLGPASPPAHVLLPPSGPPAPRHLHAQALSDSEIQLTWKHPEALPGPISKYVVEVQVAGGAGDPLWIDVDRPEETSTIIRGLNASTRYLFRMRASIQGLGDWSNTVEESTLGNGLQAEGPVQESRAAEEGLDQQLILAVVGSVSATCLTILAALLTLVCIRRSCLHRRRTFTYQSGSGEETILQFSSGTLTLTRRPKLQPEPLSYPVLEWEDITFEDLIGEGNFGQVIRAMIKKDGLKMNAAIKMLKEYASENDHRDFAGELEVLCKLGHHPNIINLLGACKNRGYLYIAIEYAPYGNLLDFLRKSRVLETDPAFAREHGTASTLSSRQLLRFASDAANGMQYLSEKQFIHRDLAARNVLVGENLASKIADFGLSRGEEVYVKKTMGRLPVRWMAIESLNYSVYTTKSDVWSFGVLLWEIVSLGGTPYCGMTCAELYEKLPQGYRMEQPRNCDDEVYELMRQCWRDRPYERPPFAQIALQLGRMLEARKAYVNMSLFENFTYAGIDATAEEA
# UniProt Q00536, sequence (whole entry, looked up): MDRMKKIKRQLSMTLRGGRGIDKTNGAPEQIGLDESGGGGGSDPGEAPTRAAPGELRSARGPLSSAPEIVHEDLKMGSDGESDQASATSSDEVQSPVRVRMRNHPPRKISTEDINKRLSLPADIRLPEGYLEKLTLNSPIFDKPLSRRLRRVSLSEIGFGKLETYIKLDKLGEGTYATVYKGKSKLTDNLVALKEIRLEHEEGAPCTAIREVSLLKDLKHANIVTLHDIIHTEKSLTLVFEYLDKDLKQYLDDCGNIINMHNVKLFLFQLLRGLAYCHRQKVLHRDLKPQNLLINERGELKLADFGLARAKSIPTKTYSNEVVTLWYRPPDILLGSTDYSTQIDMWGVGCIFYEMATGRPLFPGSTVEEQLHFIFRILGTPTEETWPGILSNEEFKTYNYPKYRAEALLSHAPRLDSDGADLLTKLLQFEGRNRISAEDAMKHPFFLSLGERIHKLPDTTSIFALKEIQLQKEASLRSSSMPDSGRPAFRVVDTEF

# Study 1
# Cell line: yeast with cyclin D2-Cln2 chimera
# Effect on: cell growth
# Action: binder
# Technique: competitive growth deep sequencing
# Form: peptide
# Tested at: concentration not given
# Notes: peptide tiling library
# Direction: direction not given
Molecule,growth enrichment score
ALTMEALEDPSPELME,0.315
VKRLNFRSEEME,-1.18
PARRRLRLSVDEVSSP,-0.343
AIRKMREDRWAVIAKM,1.05
IPDRSTKPVVFSPT,1.03
ESSQLTVQAEFDMSAI,0.0688
PAKRRLELGE,1.21
KRCATPVIIDEILPSK,0.59

# Study 2
# Target: Sal-like protein 4, full length isoform A (SALL4, Homo sapiens, UniProt Q9UJQ4, residues 1-1053)
# UniProt Q9UJQ4, sequence (whole entry, looked up): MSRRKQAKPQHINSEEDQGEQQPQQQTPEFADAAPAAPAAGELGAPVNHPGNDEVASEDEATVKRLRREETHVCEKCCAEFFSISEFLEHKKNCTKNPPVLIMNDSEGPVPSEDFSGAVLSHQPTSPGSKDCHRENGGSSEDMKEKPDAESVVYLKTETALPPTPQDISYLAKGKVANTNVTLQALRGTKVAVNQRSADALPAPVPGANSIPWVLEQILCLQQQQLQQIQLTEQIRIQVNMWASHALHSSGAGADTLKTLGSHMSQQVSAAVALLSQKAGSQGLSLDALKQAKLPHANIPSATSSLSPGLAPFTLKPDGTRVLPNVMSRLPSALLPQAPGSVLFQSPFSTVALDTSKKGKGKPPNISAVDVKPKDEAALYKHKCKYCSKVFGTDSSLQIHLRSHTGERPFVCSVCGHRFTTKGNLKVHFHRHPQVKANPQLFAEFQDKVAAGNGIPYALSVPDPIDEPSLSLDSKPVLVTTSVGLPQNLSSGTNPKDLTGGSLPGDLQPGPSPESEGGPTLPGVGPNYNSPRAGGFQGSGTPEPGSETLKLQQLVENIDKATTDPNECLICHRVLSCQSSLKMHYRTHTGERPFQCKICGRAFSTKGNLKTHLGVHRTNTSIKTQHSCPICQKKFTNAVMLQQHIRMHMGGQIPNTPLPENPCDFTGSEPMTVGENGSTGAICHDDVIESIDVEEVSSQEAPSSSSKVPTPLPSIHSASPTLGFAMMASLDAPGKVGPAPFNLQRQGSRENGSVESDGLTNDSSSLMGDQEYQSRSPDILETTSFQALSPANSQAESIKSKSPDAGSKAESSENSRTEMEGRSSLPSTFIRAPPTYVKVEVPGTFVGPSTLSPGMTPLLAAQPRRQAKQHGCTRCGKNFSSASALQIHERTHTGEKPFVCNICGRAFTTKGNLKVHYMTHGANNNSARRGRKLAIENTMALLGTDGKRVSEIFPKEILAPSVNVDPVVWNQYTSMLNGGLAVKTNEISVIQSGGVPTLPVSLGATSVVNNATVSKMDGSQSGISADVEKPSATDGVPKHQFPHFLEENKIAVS
# Technique: universal PBM
# Form: double-stranded DNA, one strand shown
# Matrix: in vitro
# Tested at: 600 nM
# Notes: 8-mer, flanks averaged, mean of replicates
# Direction: higher = stronger binding
Strand,E-score
AATGACAT,0.194
GGGCTACA,-0.191
GGAGTCAA,-0.0296
GACCGCTC,-0.179
CTTCACTC,-0.0369
CGGCACCG,-0.358
AAGTCATT,0.128
AACGGGCC,-0.229

# Study 3
# Structure (SMILES): Cn1nc(C(F)(F)F)cc1-c1cnc(N2CCc3cc(S(=O)(=O)Nc4c(F)cc(Cl)cc4F)cc(N4CCCC4=O)c32)nc1
# Effect on: cell-free assay
# Technique: competition with immobilised ligand
# Tested at: 1 µM
target,remaining binding
"MAP3K10 (Homo sapiens, UniProt Q02779)",93%
"NEK1 (Homo sapiens, UniProt Q96PY6)",100%
"LCK (Homo sapiens, UniProt P06239)",100%
"PDPK1 (Homo sapiens, UniProt O15530)",100%
"IRAK1 (Homo sapiens, UniProt P51617)",72%
"TIE1 (Homo sapiens, UniProt P35590)",100%
"PRKD1 (Homo sapiens, UniProt Q15139)",80%
"PAK6 (Homo sapiens, UniProt Q9NQU5)",100%
"MAP2K5 (Homo sapiens, UniProt Q13163)",83%
"PIK3CA (Homo sapiens, UniProt P42336)",100%
"CDK16 (Homo sapiens, UniProt Q00536)",77%
"EPHA6 (Homo sapiens, UniProt Q9UF33)",89%
"PIK3CG (Homo sapiens, UniProt P48736)",88%

# Study 4
# Target: Serine/threonine-protein kinase Sgk3 (SGK3, Homo sapiens, UniProt Q96BR1)
# Effect on: enzyme activity
# Action: inhibitor
# Tested at: 0.5 µM
# Relative to: control
# Target sequence (Q96BR1 1-496): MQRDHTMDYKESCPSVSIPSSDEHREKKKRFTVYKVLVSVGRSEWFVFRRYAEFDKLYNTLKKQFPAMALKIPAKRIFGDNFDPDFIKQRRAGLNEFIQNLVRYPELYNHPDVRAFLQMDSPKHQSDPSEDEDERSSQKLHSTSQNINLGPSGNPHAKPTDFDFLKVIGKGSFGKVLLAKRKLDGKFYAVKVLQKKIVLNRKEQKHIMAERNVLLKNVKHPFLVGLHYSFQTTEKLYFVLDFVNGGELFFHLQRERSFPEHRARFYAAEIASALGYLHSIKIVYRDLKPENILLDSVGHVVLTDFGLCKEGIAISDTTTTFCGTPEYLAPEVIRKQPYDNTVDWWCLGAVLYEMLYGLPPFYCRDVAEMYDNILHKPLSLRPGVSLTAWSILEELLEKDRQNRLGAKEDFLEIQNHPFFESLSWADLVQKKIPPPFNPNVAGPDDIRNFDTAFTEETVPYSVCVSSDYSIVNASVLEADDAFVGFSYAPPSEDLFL
SMILES,remaining activity [%]
COc1cc2ncnc(Nc3ccc(F)c(Cl)c3)c2cc1OCCCN1CCOCC1,98.3
CCOC(=O)c1c(C)[nH]c(/C=C2\C(=O)Nc3ccccc32)c1C,88.1
NCCNc1ncc(C(N)=O)c(Nc2cccc(C(F)(F)F)c2)n1,96.1
COc1ccc(OC)c2c(=S)c3ccccc3[nH]c12,90.7
COc1ccc(CNC(=O)Nc2ncc([N+](=O)[O-])s2)cc1,96.9
CO[C@H]1C[C@@H]2CC[C@@H](C)[C@@](O)(O2)C(=O)C(=O)N2CCCC[C@H]2C(=O)O[C@H]([C@H](C)C[C@@H]2CC[C@@H](O)[C@H](OC)C2)CC(=O)[C@H](C)/C=C(\C)[C@@H](O)[C@@H](OC)C(=O)[C@H](C)C[C@H](C)/C=C/C=C/C=C/1C,98.1
O=S(=O)(c1cccc2cnccc12)N1CCCNCC1,91.6
